Results collected from several papers.
Lines come from different studies, so protocols differ. ± marks the error that the study gave.
Tumor necrosis factor receptor superfamily member 9/Nectin-4: Tumor necrosis factor receptor superfamily member 9/Nectin-4 (Homo sapiens, UniProt Q07011+Q96NY8)
Chain of UniProt Q96NY8 (whole entry, looked up): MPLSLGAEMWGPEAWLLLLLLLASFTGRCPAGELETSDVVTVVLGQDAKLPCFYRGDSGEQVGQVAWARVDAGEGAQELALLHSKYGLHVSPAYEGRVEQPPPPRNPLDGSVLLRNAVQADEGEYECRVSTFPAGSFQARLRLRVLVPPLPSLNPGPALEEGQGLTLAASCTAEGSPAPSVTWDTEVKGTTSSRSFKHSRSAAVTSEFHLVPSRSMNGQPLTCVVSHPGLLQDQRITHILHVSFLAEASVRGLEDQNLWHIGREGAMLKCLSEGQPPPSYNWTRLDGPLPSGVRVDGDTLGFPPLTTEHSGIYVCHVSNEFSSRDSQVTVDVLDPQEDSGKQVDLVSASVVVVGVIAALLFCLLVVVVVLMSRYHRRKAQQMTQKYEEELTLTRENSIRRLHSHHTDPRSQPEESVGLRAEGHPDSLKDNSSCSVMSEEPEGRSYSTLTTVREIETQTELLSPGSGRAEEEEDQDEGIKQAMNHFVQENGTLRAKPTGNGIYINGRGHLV
Chain of UniProt Q07011 (whole entry, looked up): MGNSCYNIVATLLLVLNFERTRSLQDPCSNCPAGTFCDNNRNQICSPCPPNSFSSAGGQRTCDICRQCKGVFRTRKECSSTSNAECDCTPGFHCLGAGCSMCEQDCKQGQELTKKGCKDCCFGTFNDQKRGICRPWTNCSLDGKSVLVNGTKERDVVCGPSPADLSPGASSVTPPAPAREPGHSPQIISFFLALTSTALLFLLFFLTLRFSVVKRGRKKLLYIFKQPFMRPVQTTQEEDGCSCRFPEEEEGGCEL
sdiA: Regulatory protein SdiA (sdiA, Escherichia coli, UniProt P07026)
Chain of UniProt P07026 (whole entry, looked up): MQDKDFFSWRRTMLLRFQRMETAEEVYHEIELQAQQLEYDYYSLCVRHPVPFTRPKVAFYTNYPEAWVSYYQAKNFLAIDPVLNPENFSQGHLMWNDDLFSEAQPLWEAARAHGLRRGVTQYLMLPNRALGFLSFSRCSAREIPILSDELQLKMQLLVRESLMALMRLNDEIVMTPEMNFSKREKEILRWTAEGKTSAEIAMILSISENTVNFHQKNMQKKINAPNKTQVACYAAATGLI
H2-D1 17: H-2 class I histocompatibility antigen, D-B alpha chain, 17 (H2-D1, Mus musculus, UniProt P01899)
Chain of UniProt P01899 (whole entry, looked up): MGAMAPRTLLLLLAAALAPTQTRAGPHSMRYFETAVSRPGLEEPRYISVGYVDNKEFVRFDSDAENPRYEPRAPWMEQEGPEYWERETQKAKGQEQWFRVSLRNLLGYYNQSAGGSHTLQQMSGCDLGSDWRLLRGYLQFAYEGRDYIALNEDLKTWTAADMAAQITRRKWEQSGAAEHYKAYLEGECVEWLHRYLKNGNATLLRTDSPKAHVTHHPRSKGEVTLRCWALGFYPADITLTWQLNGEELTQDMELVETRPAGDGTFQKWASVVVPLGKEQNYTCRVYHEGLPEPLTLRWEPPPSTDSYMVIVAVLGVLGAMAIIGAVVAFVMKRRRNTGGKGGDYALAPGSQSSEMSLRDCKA
Chain of UniProt Q16602 (whole entry, looked up): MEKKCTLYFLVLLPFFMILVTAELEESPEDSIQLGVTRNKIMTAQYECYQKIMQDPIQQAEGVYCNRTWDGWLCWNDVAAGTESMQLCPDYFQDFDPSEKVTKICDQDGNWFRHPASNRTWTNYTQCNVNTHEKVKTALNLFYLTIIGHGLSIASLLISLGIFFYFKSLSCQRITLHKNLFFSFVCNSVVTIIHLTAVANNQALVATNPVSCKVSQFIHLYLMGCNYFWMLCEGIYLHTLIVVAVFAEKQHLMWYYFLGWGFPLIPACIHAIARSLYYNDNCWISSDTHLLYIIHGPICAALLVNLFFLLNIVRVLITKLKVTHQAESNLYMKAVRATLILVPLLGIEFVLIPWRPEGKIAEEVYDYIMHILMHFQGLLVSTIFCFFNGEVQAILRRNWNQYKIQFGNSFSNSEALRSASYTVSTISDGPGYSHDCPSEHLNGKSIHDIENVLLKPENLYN
Chain of UniProt P07700 (whole entry, unmodified, looked up): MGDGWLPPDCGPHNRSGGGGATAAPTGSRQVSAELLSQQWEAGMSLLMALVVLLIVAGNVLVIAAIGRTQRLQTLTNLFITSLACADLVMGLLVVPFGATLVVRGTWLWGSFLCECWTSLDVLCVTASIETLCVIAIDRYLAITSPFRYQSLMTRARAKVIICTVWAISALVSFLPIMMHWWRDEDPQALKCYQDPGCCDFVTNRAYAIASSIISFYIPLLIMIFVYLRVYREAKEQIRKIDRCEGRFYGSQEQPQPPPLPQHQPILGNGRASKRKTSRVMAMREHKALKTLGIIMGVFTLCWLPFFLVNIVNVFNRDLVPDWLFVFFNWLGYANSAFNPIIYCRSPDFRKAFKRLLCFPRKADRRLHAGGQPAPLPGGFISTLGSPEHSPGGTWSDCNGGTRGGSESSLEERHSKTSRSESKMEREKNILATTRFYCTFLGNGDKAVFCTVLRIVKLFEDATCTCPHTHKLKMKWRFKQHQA
Chain of UniProt O60896 (whole entry, looked up): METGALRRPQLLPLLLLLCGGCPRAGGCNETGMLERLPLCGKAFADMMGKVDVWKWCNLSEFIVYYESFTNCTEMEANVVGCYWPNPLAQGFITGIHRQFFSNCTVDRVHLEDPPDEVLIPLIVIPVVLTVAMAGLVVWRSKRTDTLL
Chain of UniProt P35579 (whole entry, looked up): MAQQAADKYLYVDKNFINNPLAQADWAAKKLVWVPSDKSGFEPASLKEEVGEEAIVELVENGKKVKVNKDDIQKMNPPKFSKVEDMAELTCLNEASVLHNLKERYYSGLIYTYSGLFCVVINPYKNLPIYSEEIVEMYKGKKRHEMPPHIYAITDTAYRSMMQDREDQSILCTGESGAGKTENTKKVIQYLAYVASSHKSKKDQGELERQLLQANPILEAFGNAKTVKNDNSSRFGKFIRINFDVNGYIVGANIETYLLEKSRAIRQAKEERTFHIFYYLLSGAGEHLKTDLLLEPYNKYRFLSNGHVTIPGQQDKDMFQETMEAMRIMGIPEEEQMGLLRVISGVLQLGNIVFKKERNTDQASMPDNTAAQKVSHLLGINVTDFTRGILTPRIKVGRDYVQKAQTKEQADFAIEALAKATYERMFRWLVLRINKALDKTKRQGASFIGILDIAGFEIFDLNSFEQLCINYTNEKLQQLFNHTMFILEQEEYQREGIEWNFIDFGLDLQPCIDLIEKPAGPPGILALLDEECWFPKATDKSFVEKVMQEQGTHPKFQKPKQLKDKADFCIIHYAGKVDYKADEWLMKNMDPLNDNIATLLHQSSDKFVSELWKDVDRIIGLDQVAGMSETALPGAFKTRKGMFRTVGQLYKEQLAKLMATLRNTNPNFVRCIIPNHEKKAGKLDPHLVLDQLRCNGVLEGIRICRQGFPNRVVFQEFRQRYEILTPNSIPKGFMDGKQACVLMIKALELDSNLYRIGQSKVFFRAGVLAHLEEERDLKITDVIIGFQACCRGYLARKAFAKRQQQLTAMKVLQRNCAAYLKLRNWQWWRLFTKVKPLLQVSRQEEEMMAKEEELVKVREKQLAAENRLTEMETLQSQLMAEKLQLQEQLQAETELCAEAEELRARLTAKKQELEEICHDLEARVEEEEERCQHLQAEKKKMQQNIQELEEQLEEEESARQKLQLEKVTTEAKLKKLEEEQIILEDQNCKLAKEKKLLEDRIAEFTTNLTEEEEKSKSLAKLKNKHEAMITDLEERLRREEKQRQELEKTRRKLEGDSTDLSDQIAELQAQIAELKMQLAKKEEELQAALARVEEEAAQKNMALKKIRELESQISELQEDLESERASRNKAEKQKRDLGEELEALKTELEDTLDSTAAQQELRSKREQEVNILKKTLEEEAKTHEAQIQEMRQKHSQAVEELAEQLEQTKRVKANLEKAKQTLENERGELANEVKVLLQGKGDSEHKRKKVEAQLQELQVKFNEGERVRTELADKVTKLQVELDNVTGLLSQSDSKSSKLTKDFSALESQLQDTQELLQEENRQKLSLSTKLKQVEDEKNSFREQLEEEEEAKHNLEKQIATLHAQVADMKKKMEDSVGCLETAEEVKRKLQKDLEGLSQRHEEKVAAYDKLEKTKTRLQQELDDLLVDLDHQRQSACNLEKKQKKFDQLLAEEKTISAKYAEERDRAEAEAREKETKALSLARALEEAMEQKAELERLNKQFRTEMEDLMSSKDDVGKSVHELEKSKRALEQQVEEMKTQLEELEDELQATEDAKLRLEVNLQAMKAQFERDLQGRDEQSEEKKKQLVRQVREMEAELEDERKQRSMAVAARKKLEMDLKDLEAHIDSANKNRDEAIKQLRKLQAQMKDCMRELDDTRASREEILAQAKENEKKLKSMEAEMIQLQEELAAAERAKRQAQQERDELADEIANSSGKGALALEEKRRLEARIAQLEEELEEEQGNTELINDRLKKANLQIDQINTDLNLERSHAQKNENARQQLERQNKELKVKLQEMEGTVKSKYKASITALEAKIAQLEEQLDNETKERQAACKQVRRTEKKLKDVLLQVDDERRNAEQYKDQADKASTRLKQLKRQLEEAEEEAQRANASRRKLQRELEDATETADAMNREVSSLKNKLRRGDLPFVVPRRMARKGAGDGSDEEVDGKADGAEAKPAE
Chain of UniProt P34972 (whole entry, looked up): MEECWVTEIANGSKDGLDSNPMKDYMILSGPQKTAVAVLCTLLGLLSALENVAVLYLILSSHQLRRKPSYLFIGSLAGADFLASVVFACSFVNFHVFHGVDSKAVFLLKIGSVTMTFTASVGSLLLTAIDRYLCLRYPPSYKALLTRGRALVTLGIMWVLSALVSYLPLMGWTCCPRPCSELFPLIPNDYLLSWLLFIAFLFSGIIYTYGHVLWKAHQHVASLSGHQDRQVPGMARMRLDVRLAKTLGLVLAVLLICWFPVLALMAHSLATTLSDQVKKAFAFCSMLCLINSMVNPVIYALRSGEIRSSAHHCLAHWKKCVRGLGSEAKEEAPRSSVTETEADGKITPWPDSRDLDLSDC

COc1cc(Nc2ncc(F)c(Nc3ccc4c(n3)NC(=O)C(C)(C)O4)n2)cc(OC)c1OC  IC50 (Adrenomedullin receptor, AM2; CALCRL/RAMP3 (Homo sapiens, UniProt O60896+Q16602)): > 10000 nM
O=C(C1CCCCC1)N1CC(=O)N2CCc3ccccc3C2C1 (stereo not shown)  EC50 (TRPM channel (Clonorchis sinensis, UniProt G7YJJ5)): 850 ± 220 nM
CC(CCc1ccc(O)cc1)NCCc1ccc(O)c(O)c1 (stereo not shown)  EC50 (ADRB1 (Meleagris gallopavo, UniProt P07700, C116L/C358A/del244-271/del277-278); CRE-SPAP reporter gene, agonist; CHO cells): 263 nM
CCCC[C@@H]1NC(=O)[C@H](Cc2ccc(O)cc2)NC(=O)[C@@H]2CCCN2C(=O)[C@H](CC(=O)O)NC(=O)[C@H](C)NC(=O)[C@H](Cc2ccccc2)NC(=O)[C@@H]2CSCCC(=O)N3CN(CN(C3)C(=O)CCSC[C@@H](C(N)=O)NC1=O)C(=O)CCSCCC(=O)N[C@@H](CC(C)(C)C)C(=O)N1CCC[C@H]1C(=O)N[C@@H](CCC(=O)O)C(=O)N[C@H](CCCCNC(=O)CCc1cn(CCOCCOCCOCCOCCOCCC(=O)N[C@H]3CSCCC(=O)N4CN5CN(C4)C(=O)CCSC[C@H](NC(=O)[C@@H](CC(=O)O)NC(=O)[C@H](Cc4cccc6ccccc46)NC(=O)[C@@H]4CCCN4C3=O)C(=O)N[C@@H](CCSC)C(=O)N[C@@H](CCCCNC(=N)N)C(=O)N[C@@H](CC(=O)O)C(=O)N[C@@H](Cc3c[nH]c4ccccc34)C(=O)N[C@@H](CO)C(=O)N[C@@H]([C@@H](C)O)C(=O)N3CCC[C@H]3C(=O)N3C[C@H](O)C[C@H]3C(=O)N[C@@H](Cc3c[nH]c4ccccc34)C(=O)N[C@H](C(N)=O)CSCCC5=O)nn1)C(=O)N1CCC[C@H]1C(=O)N[C@@H](Cc1ccc(O)cc1)C(=O)N2  EC50 (Tumor necrosis factor receptor superfamily member 9/Nectin-4; reporter gene, agonist; HT-1376 coculture with reporter cells): 2.45 nM
CCOc1ccc(CN2CCN(Cc3ccc4c(c3)c3ccccc3n4CC)CC2)cc1  cytotoxicity efficacy (Vero-E6; CellTiter-Glo ATP; concentration not given, 72 h, second round 5-point; baseline: DMSO 0%, hyamine -100%, more negative, more toxic): -25.8%
COc1cc(C(=O)N2CC[C@@H](O)[C@@H](N)C2)cc2nc(-c3cc4ccccc4n3CC3CC3)n(C)c12  EC50 (Cannabinoid receptor 2 (CNR2, Homo sapiens, UniProt P34972); agonist, yeast FDGlu reporter; yeast): > 31600 nM
CCCCCCCCCCCC(=O)N[C@H]1CCOC1=O  EC50 (sdiA): 15.8 nM
C[C@H]1CN(c2n[nH]c3nc(N[C@H]4CC[C@H](NS(=O)(=O)CCC(F)(F)F)CC4)ncc23)CCO1  IC50 (Myosin-9 (MYH9, Homo sapiens, UniProt P35579); biochemical): ≥ 20000 nM
CCCCCC(=O)N[C@H]1CCOC1=O  EC50 (sdiA): 2.46 nM
CC[C@H](C)[C@H](NC(=O)[C@H](C)NC(=O)[C@@H](NC(=O)[C@@H](NC(=O)[C@H](C)NC(=O)[C@H](CC(N)=O)NC(=O)[C@H](C)NC(=O)[C@@H](NC(=O)[C@H](CO)NC(=O)[C@@H](N)CO)C(C)C)[C@@H](C)O)[C@@H](C)O)C(=O)O  EC50 (H2-D1 17; H-2D stabilisation, flow cytometry; RMA-S TAP-deficient; overnight): 2000 nM
C=CC(O)CCCCC (stereo not shown)  EC50 (GPRor8 (Aedes aegypti, UniProt Q16MN0); ion current, agonist, two-electrode voltage clamp; Xenopus oocytes): 2140 nM
O=C(Cc1cccc([N+](=O)[O-])c1)NC1CCCC1  EC50 (sdiA): 2.07 nM
COc1cc(/C=C/c2ccc(OC)cc2OC)cc(OC)c1  maximum inhibition (human coronavirus OC43; virus-induced cell killing; MRC-5; screen): 26.1%
CCCC[C@@H]1NC(=O)[C@H](Cc2ccc(O)cc2)NC(=O)[C@@H]2CCCN2C(=O)[C@H](CC(=O)O)NC(=O)[C@H](C)NC(=O)[C@H](Cc2ccccc2)NC(=O)[C@@H]2CSCCC(=O)N3CN(CN(C3)C(=O)CCSC[C@H](NC(C)=O)C(=O)N[C@@H](CC(C)(C)C)C(=O)N3CCC[C@H]3C(=O)N[C@@H](CCC(=O)O)C(=O)N[C@H](CCCCNC(=O)CCc3cn(CCOCCOCCOCCN(CCOCCOCCOCCC(=O)N[C@H]4CSCCC(=O)N5CN6CN(C5)C(=O)CCSC[C@H](NC(=O)[C@@H](CC(=O)O)NC(=O)[C@H](Cc5cccc7ccccc57)NC(=O)[C@@H]5CCCN5C4=O)C(=O)N[C@@H](CCSC)C(=O)N[C@@H](CCCCNC(=N)N)C(=O)N[C@@H](CC(=O)O)C(=O)N[C@@H](Cc4c[nH]c5ccccc45)C(=O)N[C@@H](CO)C(=O)N[C@@H]([C@@H](C)O)C(=O)N4CCC[C@H]4C(=O)N4C[C@H](O)C[C@H]4C(=O)N[C@@H](Cc4c[nH]c5ccccc45)C(=O)N[C@H](C(N)=O)CSCCC6=O)CCOCCOCCOCCn4cc(CCC(=O)NCCCC[C@H]5NC(=O)[C@H](CCC(=O)O)NC(=O)[C@@H]6CCCN6C(=O)[C@H](CC(C)(C)C)NC(=O)[C@@H](NC(C)=O)CSCCC(=O)N6CN7CN(C6)C(=O)CCSC[C@H](NC(=O)[C@H](Cc6ccc(O)cc6)NC(=O)[C@@H]6CCCN6C5=O)C(=O)N[C@@H](Cc5ccccc5)C(=O)N[C@@H](C)C(=O)N[C@@H](CC(=O)O)C(=O)N5CCC[C@H]5C(=O)N[C@@H](Cc5ccc(O)cc5)C(=O)N[C@@H](CCCC)C(=O)NCCSCCC7=O)nn4)nn3)C(=O)N3CCC[C@H]3C(=O)N[C@@H](Cc3ccc(O)cc3)C(=O)N2)C(=O)CCSCCNC1=O  EC50 (Tumor necrosis factor receptor superfamily member 9/Nectin-4; reporter gene, agonist; HT-1376 coculture with reporter cells): 0.63 nM
C[C@H]1C[C@H]2[C@@H]3CCC4=CC(=O)C=C[C@]4(C)[C@H]3C(=O)C[C@]2(C)[C@@]1(O)C(=O)CO  maximum inhibition (human coronavirus OC43; virus-induced cell killing; MRC-5; screen): 10.7%
CCCC[C@@H]1NC(=O)[C@H](Cc2ccc(O)cc2)NC(=O)[C@@H]2CCCN2C(=O)[C@H](CC(=O)O)NC(=O)[C@H](C)NC(=O)[C@H](Cc2ccccc2)NC(=O)[C@@H]2CSCCC(=O)N3CN(CN(C3)C(=O)CCSC[C@@H](C(=O)N[C@@H](CNC(=O)CCc3cn(CCOCCOCCOCCN(CCOCCOCCOCCC(=O)N[C@H]4CSCCC(=O)N5CN6CN(C5)C(=O)CCSC[C@H](NC(=O)[C@@H](CC(=O)O)NC(=O)[C@H](Cc5cccc7ccccc57)NC(=O)[C@@H]5CCCN5C4=O)C(=O)N[C@@H](CCSC)C(=O)N[C@@H](CCCCNC(=N)N)C(=O)N[C@@H](CC(=O)O)C(=O)N[C@@H](Cc4c[nH]c5ccccc45)C(=O)N[C@@H](CO)C(=O)N[C@@H]([C@@H](C)O)C(=O)N4CCC[C@H]4C(=O)N4C[C@H](O)C[C@H]4C(=O)N[C@@H](Cc4c[nH]c5ccccc45)C(=O)N[C@H](C(N)=O)CSCCC6=O)CCOCCOCCOCCn4cc(CCC(=O)NC[C@H](NC(=O)[C@@H]5CSCCC(=O)N6CN7CN(C6)C(=O)CCSC[C@H](NC(=O)[C@H](Cc6ccc(O)cc6)NC(=O)[C@@H]6CCCN6C(=O)[C@@H](C)NC(=O)[C@H](CCC(=O)O)NC(=O)[C@@H]6CCCN6C(=O)[C@H](CC(C)(C)C)NC(=O)[C@@H](NC(C)=O)CSCCC7=O)C(=O)N[C@@H](Cc6ccccc6)C(=O)N[C@@H](C)C(=O)N[C@@H](CC(=O)O)C(=O)N6CCC[C@H]6C(=O)N[C@@H](Cc6ccc(O)cc6)C(=O)N[C@@H](CCCC)C(=O)N5)C(N)=O)nn4)nn3)C(N)=O)NC1=O)C(=O)CCSC[C@H](NC(C)=O)C(=O)N[C@@H](CC(C)(C)C)C(=O)N1CCC[C@H]1C(=O)N[C@@H](CCC(=O)O)C(=O)N[C@H](C)C(=O)N1CCC[C@H]1C(=O)N[C@@H](Cc1ccc(O)cc1)C(=O)N2  EC50 (Tumor necrosis factor receptor superfamily member 9/Nectin-4; reporter gene, agonist; HT-1376 coculture with reporter cells): 0.2 nM
CC[C@H](C)[C@H](NC(=O)[C@H](C)NC(=O)[C@@H](NC(=O)[C@@H](NC(=O)[C@H](C)NC(=O)[C@H](CC(N)=O)NC(=O)[C@H](Cc1c[nH]c2ccccc12)NC(=O)[C@H](C)NC(=O)[C@H](CO)NC(=O)[C@@H](N)CO)[C@@H](C)O)[C@@H](C)O)C(=O)O  EC50 (H2-D1 17; H-2D stabilisation, flow cytometry; RMA-S TAP-deficient; overnight): 25000 nM
CCCC[C@@H]1NC(=O)[C@H](Cc2ccc(O)cc2)NC(=O)[C@@H]2CCCN2C(=O)[C@H](CC(=O)O)NC(=O)[C@H](C)NC(=O)[C@H](Cc2ccccc2)NC(=O)[C@@H]2CSCCC(=O)N3CN(CN(C3)C(=O)CCSCCC(=O)N[C@@H](CC(C)(C)C)C(=O)N3CCC[C@H]3C(=O)N[C@@H](CCC(=O)O)C(=O)N[C@H](CCCCNC(=O)CCc3cn(CCOCCOCCOCCN(CCOCCOCCOCCC(=O)N[C@H]4CSCCC(=O)N5CN6CN(C5)C(=O)CCSC[C@H](NC(=O)[C@@H](CC(=O)O)NC(=O)[C@H](Cc5cccc7ccccc57)NC(=O)[C@@H]5CCCN5C4=O)C(=O)N[C@@H](CCSC)C(=O)N[C@@H](CCCCNC(=N)N)C(=O)N[C@@H](CC(=O)O)C(=O)N[C@@H](Cc4c[nH]c5ccccc45)C(=O)N[C@@H](CO)C(=O)N[C@@H]([C@@H](C)O)C(=O)N4CCC[C@H]4C(=O)N4C[C@H](O)C[C@H]4C(=O)N[C@@H](Cc4c[nH]c5ccccc45)C(=O)N[C@H](C(N)=O)CSCCC6=O)CCOCCOCCOCCn4cc(CCC(=O)NCCCC[C@H]5NC(=O)[C@H](CCC(=O)O)NC(=O)[C@@H]6CCCN6C(=O)[C@H](CC(C)(C)C)NC(=O)CCSCCC(=O)N6CN7CN(C6)C(=O)CCSC[C@H](NC(=O)[C@H](Cc6ccc(O)cc6)NC(=O)[C@@H]6CCCN6C5=O)C(=O)N[C@@H](Cc5ccccc5)C(=O)N[C@@H](C)C(=O)N[C@@H](CC(=O)O)C(=O)N5CCC[C@H]5C(=O)N[C@@H](Cc5ccc(O)cc5)C(=O)N[C@@H](CCCC)C(=O)NCCSCCC7=O)nn4)nn3)C(=O)N3CCC[C@H]3C(=O)N[C@@H](Cc3ccc(O)cc3)C(=O)N2)C(=O)CCSCCNC1=O  EC50 (Tumor necrosis factor receptor superfamily member 9/Nectin-4; reporter gene, agonist; HT-1376 coculture with reporter cells): 0.82 nM
Cc1ccc2nc(Cl)c3cc(C(=O)NCCCN4CCC(C)CC4)sc3c2c1  cytotoxicity efficacy (Vero-E6; CellTiter-Glo ATP; concentration not given, 72 h, retest 8-point duplicates; baseline: DMSO 0%, hyamine -100%, more negative, more toxic): 0%

Some of these lines once more:
COc1cc(Nc2ncc(F)c(Nc3ccc4c(n3)NC(=O)C(C)(C)O4)n2)cc(OC)c1OC  IC50 (Adrenomedullin receptor, AM2; CALCRL/RAMP3 (Homo sapiens, UniProt O60896+Q16602)): > 10000 nM
O=C(C1CCCCC1)N1CC(=O)N2CCc3ccccc3C2C1 (stereo not shown)  EC50 (TRPM channel (Clonorchis sinensis, UniProt G7YJJ5)): 850 ± 220 nM
CC(CCc1ccc(O)cc1)NCCc1ccc(O)c(O)c1 (stereo not shown)  EC50 (ADRB1 (Meleagris gallopavo, UniProt P07700, C116L/C358A/del244-271/del277-278); CRE-SPAP reporter gene, agonist; CHO cells): 263 nM
